Measurements collected from several papers.
Each line is one published result; not all experiments were run side by side. ± gives the spread as reported.

| SMILES | test | system | setting | unbound fraction |
| --- | --- | --- | --- | --- |
| COCC(=O)N1CCC[C@H](C(=O)NCc2nc(-c3ccc(C#N)cc3)cs2)C1 | plasma protein binding | human plasma |  | 0.075 |
| CC[N+]1(C)CCN(c2ccc(NC(=O)c3cccc(C)n3)cc2)CC1 |  | human plasma |  | 0.68 |
| CCOCC(=O)N1CCC[C@H](C(=O)NCc2nc(-c3ccc(C)nc3)cs2)C1 | plasma protein binding | rat plasma |  | 0.069 |
| CCc1cc(NC(=O)COc2cc(Cl)ccc2Cl)n(C2CCOCC2)n1 |  | human plasma |  | 0.049 |
| Cc1cc(C)c(CNC(=O)c2cc(Cl)c3c(c2C)O[C@@](C)([C@H]2CC[C@H](N(C)C)CC2)O3)c(=O)[nH]1 | ultracentrifugation | solution, alpha-1 acid glycoprotein, 0.1% | 5000 ng/mL, 160 min | 0.233 |
| Cc1cc(Nc2ccc(S(F)(F)(F)(F)F)cc2)n2ncnc2n1 | rapid equilibrium dialysis | diluted mouse plasma | 2 µM | 0.079 |
| CO[C@H]1C[C@@H]2CC[C@@H](C)[C@@](O)(O2)C(=O)C(=O)N2CCCC[C@H]2C(=O)O[C@H]([C@H](C)C[C@@H]2CC[C@@H](OC(=O)NCCOCCOCCOCCOCCOCCOCCOCCOCCC(=O)N3CCc4cc(Cn5nc(-c6ccc7oc(N)nc7c6)c6c(N)ncnc65)ccc4C3)[C@H](OC)C2)C[C@@H](O)[C@H](C)/C=C(\C)[C@@H](O)[C@@H](OC)C(=O)[C@H](C)C[C@H](C)/C=C/C=C/C=C/1C | ultracentrifugation | human plasma | 0.5 µM | 0.057 |
| CN1CCN(c2ccc(C(=O)Nc3n[nH]c4ccc(Cc5cc(F)cc(F)c5)cc34)c(NC3CCOCC3)c2)CC1 | rapid equilibrium dialysis | human plasma |  | 0.00254 |
| Cn1cncc1[C@@](N)(c1ccc(Cl)cc1)c1ccc2c(c1)c(-c1cccc(Cl)c1)cc(=O)n2C |  | cancer patients, mild hepatic impairment, plasma | 50 mg twice daily | 0.0055 |
| O=C1N[C@H](c2cncc(C#Cc3ccccc3)c2)[C@@H](c2ccccc2Cl)O1 |  | monkey plasma |  | < 0.01 |
| COCC(=O)N1CCC[C@H](C(=O)NCc2nc(-c3ccccc3)cs2)C1 | plasma protein binding | human plasma |  | 0.006 |
| CCCOc1ccc([C@H]2CNC(=O)N2c2ccc3[nH]cnc3c2)cc1 | equilibrium dialysis | diluted human serum |  | 0.46 |
| Nc1c(CC(=O)O)cccc1C(=O)c1ccc(Br)cc1 | in vitro | liver |  | 0.036 |
| Cc1cc(Nc2ccc(S(F)(F)(F)(F)F)cc2)n2ccnc2n1 | rapid equilibrium dialysis | diluted mouse plasma | 2 µM | 0.027 |
| N#C[C@@]1(c2ccc3c(N)ncnn23)O[C@H](CO)[C@@H](O)[C@H]1O | plasma protein binding | mouse plasma | 1 µM | 0.963 |
| Nc1ncnc2c1c(Oc1cc(C(F)(F)F)ccn1)nn2C1CC1 |  | mouse brain tissue |  | 10.1% |
| Cc1ncc(CO)c(C(=O)O)c1O |  | plasma |  | 0.081 ± 0.0004 |
| NCCOCC(=O)N1CCC[C@H](C(=O)NCc2nc(-c3ccc(C(F)(F)F)cc3)cs2)C1 | plasma protein binding | rat plasma |  | 0.14 |
| Cc1c(OCC(F)(F)F)ccnc1C[S+]([O-])c1nc2ccccc2[nH]1 (stereo not shown) | plasma protein binding | pig plasma | 10 µg/mL | 0.03 |
| CC(C)c1nc(N(C)S(C)(=O)=O)nc(-c2ccc(F)cc2)c1/C=C/[C@@H](O)C[C@@H](O)CC(=O)O | in vitro | plasma |  | 0.192 |
| C[C@H](CCC(=O)NCC(=O)O)[C@H]1CC[C@H]2[C@@H]3[C@H](O)C[C@@H]4C[C@H](OS(=O)(=O)O)CC[C@]4(C)[C@H]3CC[C@]12C |  | plasma |  | 0.0018 ± 0.0001 |
| Cc1c(C(=O)O)ccc2c3n(nc12)[C@@H]1[C@H](C3)N(CC2CC2)[C@@]2(C(=O)Nc3cc(Cl)ccc32)[C@H]1c1cccc(Cl)c1F | equilibrium dialysis | Göttingen minipig, both sexes, plasma | pH 7.4 | 0.0065 |
| COc1cnc(Nc2cnnc3ccc(-c4ccc(N5CCN(C)CC5)cc4)cc23)nc1 | equilibrium dialysis | human plasma | 10 µM, pH 7.4 | 0.06 |
| CC(C)(N)COCC(=O)N1CCC[C@H](C(=O)NCc2nc(-c3ccc(C(F)(F)F)cc3)cs2)C1 | plasma protein binding | rat plasma |  | 0.084 |
| CC1=NN(/C(=N/c2nnc(C)s2)Nc2ccc(C)c(C)c2)C(c2cc(F)c(F)c(F)c2)S1 (stereo not shown) |  | mouse plasma |  | 0.003 |
| CC(=O)N1CCN(c2ccc(OCC3COC(Cn4ccnc4)(c4ccc(Cl)cc4Cl)O3)cc2)CC1 (stereo not shown) | equilibrium dialysis | mouse plasma | 1 µM, 6 h | 0.0074 |
| CN[C@@H](C)C(=O)N[C@H]1CN(C(=O)CC(C)C)CC[C@H]2CC[C@@H](C(=O)NC(c3ccccc3)c3ccccc3)N2C1=O | ultrafiltration | plasma | 1 µg/mL, 37 °C | 0.185 |
| CS(=O)(=O)N1CCN(Cc2cc3nc(-c4cccc5[nH]ncc45)nc(N4CCOCC4)c3s2)CC1 |  | plasma |  | 0.05 |
